Measurements of several laboratories.
Compare with care: the assays were run in different laboratories. Numbers after ± are the reported error.

| Structure (SMILES) | test | system | setting | quantity | result |
| --- | --- | --- | --- | --- | --- |
| c1ccc(-c2nnn[nH]2)cc1 |  |  | pH 7.4 | logD (chromatographic) | 0.06 |
| C[C@@H]1NC(=O)[C@H](CCCCNC(=O)CO/N=C/C(=O)NCCCC[C@@H]2NC(=O)[C@@H](Cc3ccccc3)NC(=O)[C@H](CC(=O)O)NC(=O)CNC(=O)[C@H](CCCNC(=N)N)NC2=O)NC(=O)CNC(=O)[C@@H]2CCCN2C(=O)[C@H](CCCCNC(=O)CO/N=C/C(=O)NCCCC[C@@H]2NC(=O)[C@@H](Cc3ccccc3)NC(=O)[C@H](CC(=O)O)NC(=O)CNC(=O)[C@H](CCCNC(=N)N)NC2=O)NC(=O)[C@H](CCCCNC(=O)CCNC(=O)CCNC(=O)CCNC(=O)[C@H](CCCCN)NC(=O)[C@H](Cc2ccccc2)NC(=O)CNC(=O)CN2CCCNCCNCCCNCC2)NC(=O)[C@H](CCCCNC(=O)CO/N=C/C(=O)NCCCC[C@@H]2NC(=O)[C@@H](Cc3ccccc3)NC(=O)[C@H](CC(=O)O)NC(=O)CNC(=O)[C@H](CCCNC(=N)N)NC2=O)NC(=O)CNC(=O)[C@@H]2CCCN2C(=O)[C@H](CCCCNC(=O)CO/N=C/C(=O)NCCCC[C@@H]2NC(=O)[C@@H](Cc3ccccc3)NC(=O)[C@H](CC(=O)O)NC(=O)CNC(=O)[C@H](CCCNC(=N)N)NC2=O)NC1=O [copper-64 labelled] |  | normal mice, muscle | intravenous, 0.74 MBq, 3 h post-injection | tissue uptake | 0.38 ± 0.02 %ID/g |
| O.O.O.O.O.O.[Cl-].[Cl-].[Co+2] |  | rat male, urine | oral, 10 mg/kg single, day 3 | cobalt in urine | 239 µg/L |
| COc1ccc([C@@H]2CC(=O)c3c(O)cc(O)cc3O2)cc1O |  | Sprague-Dawley rat, male, obese, faeces | oral, 100 mg/kg neohesperidin, 48 h | cumulative faecal excretion | 25200 ± 2320 ng |
| C=CC(=O)N1CC[C@H](n2nc(C#Cc3cc(OC)cc(OC)c3)c3c(N)ncnc32)C1 |  | patients with advanced solid tumours | oral, dose not given, Nausea, any grade, QD, all patients | adverse drug reaction incidence | 16.3% |
| CC[C@H](C)[C@H](NC(=O)[C@H](Cc1ccccc1)NC(=O)[C@H](CCC(=O)O)NC(=O)[C@H](CCCCN)NC(=O)[C@H](C)NC(=O)[C@H](C)NC(=O)[C@H](CCC(N)=O)NC(=O)CNC(=O)[C@H](CCC(=O)O)NC(=O)[C@H](CC(C)C)NC(=O)[C@H](Cc1ccc(O)cc1)NC(=O)[C@H](CO)NC(=O)[C@H](CO)NC(=O)[C@@H](NC(=O)[C@H](CC(=O)O)NC(=O)[C@H](CO)NC(=O)[C@@H](NC(=O)[C@H](Cc1ccccc1)NC(=O)[C@@H](NC(=O)CNC(=O)[C@H](CCC(=O)O)NC(=O)[C@H](C)NC(=O)N(N)Cc1c[nH]cn1)[C@@H](C)O)[C@@H](C)O)C(C)C)C(=O)N[C@@H](C)C(=O)N[C@@H](Cc1c[nH]c2ccccc12)C(=O)N[C@@H](CC(C)C)C(=O)N[C@H](C(=O)N[C@@H](CCCNC(=N)N)C(=O)NCC(=O)N[C@@H](CCCNC(=N)N)C(=O)NCC(=O)O)C(C)C |  | male ICR mice, plasma | intravenous, 1 mg/kg | clearance | 7.01 mL/min/kg |
| COc1cc2c(Oc3ccc4[nH]c(C)cc4c3F)ccnc2cc1OCC1(N)CC1 |  | paediatric recurrent refractory sarcoma | 8 mg | grade 1 or 2 bone pain | 25% |
| N#C[C@@]1(c2ccc3c(N)ncnn23)O[C@H](CO)[C@@H](O)[C@H]1O |  | human | dose not given, CYP3A induction, added: carbamazepine | change in exposure | ≤ 20% |
| C=CC(=O)N1CC[C@H](n2nc(C#Cc3cc(OC)cc(OC)c3)c3c(N)ncnc32)C1 | refers to: dry mouth | healthy adults | oral, grade ≥3, pooled treatments | TEAE incidence | 0% |
| CCc1ccc(CC/C=C/c2ccc3c(c2)C(=O)CC3)cc1 |  | Sprague-Dawley rat, male, blood | oral, 30 mg/kg/day, 14 days | platelet distribution width | 50.8% |
| COc1ccc(C[C@@H]2NC(=O)[C@H]([C@@H](C)O)NC(=O)[C@@H]3[C@@H]4CCN3C(=O)[C@@H]3Cc5cn(c6ccc(F)cc56)CCCCCCN(Cc5ccc(cc5)CCNC(=O)[C@]5(C)CCCN5C2=O)C(=O)CCC(=O)N[C@@H](C)C(=O)N[C@H](CNC(=O)CCCCC[N+](C)(C)C)C(=O)N[C@@H](Cc2cccc(c2)CNC(=O)CO4)C(=O)N3)cc1 | refers to: abnormal dreams | human | dose not given | participants with adverse event | 3.2% |
| c1csc(CNc2cc[nH]n2)c1 | micronucleus | CD-1 mouse Hsd:ICR(CD-1), male, bone marrow | oral, 125 mg/kg/day, 3 days | PCE to total erythrocyte ratio | 0.506 |
| CN1CC[C@@H](c2c(O)cc(O)c3c(=O)cc(-c4ccc(C(F)(F)F)cc4Cl)oc23)[C@@H]1CO | refers to: Pneumonia | relapsed AML | oral, 200 mg, grade 3-4, intermittent dosing | patients with adverse event | 0% |
